Measured values pooled from the literature.
“And” joins repeats or separate records; there may be more than shown. ± marks the error that the study gave.

| SMILES | assay | test system | conditions | how to read | endpoint | value |
| --- | --- | --- | --- | --- | --- | --- |
| Cc1c(-c2ccc(N3CCc4cccc(C(=O)Nc5nc6ccccc6s5)c4C3)nc2C(=O)O)cnn1CC12CC3(C)CC(C)(C1)CC(OCCNCC[C@H](O)CO)(C3)C2 | – | anaesthetized male beagle dog | iv infusion, 0.3 mg/kg/min, 5 min | – | plasma concentration | 730 ng/mL and 1300 ng/mL |
| Cc1nc2c(F)cc(-c3nc(Nc4ccc(CN5CCNCC5)cn4)ncc3F)cc2n1C(C)C | – | human, liver | population PK model estimate | – | intrinsic clearance | 259 L/h |
| C=CC(=O)N1CCC[C@@H](n2nc(-c3ccc(Oc4ccccc4)cc3)c3c(N)ncnc32)C1 | – | PBS | 100 µM, 23 h, pH 7.45, 37 °C, added: cysteine 10 mM | – | cysteine adduct formation | 99% |
| COc1cc(N2CCC3(CCN(C)CC3)CC2)ccc1Nc1ncc(Cl)c(Nc2ccccc2P(C)(C)=O)n1 | population PK model | human | oral, base structural model | – | V1/F | 339 L |
| OCc1nc2ccc(NCc3ccc(C(F)(F)F)cc3)cc2[nH]1 | – | Balb/c mice, male, heart | oral, 10 mg/kg, 48 h | – | tissue concentration | not detected |
| FC(F)(F)c1ccc(CNc2ccc(Cc3c[nH]c4ncc(Cl)cc34)cn2)cn1 | refers to: peripheral oedema | human, advanced solid tumours, non-TGCT cohort | oral, 1000 mg/day, any grade | – | treatment-related adverse events | 4% |
| CCn1cc(C(=O)N2CCOCC2)c(=O)c2cc(NC3Cc4ccccc4C3)cnc21 | – | humans, fasted, plasma | oral, 300 mg, single dose, suspension | – | AUC(0-inf) | 3920 ng·h/mL |
| NC/C(=C\F)COc1cccc(Cn2c(=S)[nH]c(=O)c3[nH]cnc32)c1 | – | C57BL/6J mice, kidney | oral, 15 mg/kg single, 2 h | – | tissue concentration | 624 ng/mL |
| Clc1ccc([C@@H]2COC[C@H](c3cc(Cl)cc(Cl)c3)N2)cc1 | shake-flask, 1-octanol/buffer | – | pH 7.4 | – | logD | > 4.7 |
| O=C(Nc1ccc(OC(F)(F)Cl)cc1)c1cnc(N2CC[C@@H](O)C2)c(-c2ccn[nH]2)c1 | per treatment cycle, refers to: amylase increase | human patients | oral, dose not given, 28 day cycle, dose-finding study | – | grade ≥3 event rate | 0.6% |
| CSc1ccc(S(=O)(=O)NCc2ccccn2)cc1 | – | octanol/buffer | pH 7.4 | – | logD | 2.19 |
| O=C(O)CCC(=O)O.[2H]C([2H])([2H])Oc1cc(C)c2[nH]ccc2c1CN1CC[C@@H](C2CC2)C[C@H]1c1ccc(C(=O)O)cc1 | multiple ascending dose | healthy Chinese subjects | 100 mg twice daily | – | subjects with sinus bradycardia TEAE | 0% |
| C[C@@H](Oc1ccc(S(C)(=O)=O)cc1C(=O)N1C[C@@H]2C[C@]2(c2cc(C(F)(F)F)on2)C1)C(F)(F)F | – | healthy young humans, plasma | oral, 50 mg single dose | – | %AUC extrapolated | 30.6% |
| Cn1cnc2c(F)c(Nc3ccc(Br)cc3Cl)c(C(=O)NOCCO)cc21 | population PK model | human, plasma | oral, sequential zero-first-order absorption, fed | – | absorption rate constant | 1.05 h⁻¹ |
| Cc1ccc(Sc2ccccc2N2CCNCC2)c(C)c1 | refers to: Headache | healthy adult men | oral, 40 mg single dose, 10 day | – | participants with TEAE | 0% |
| CN(C(=O)n1cnc(-c2cccnc2)c1)C1CCCCC1 | – | Wistar rat, cerebral cortex | oral, 10 mg/kg/day of BIA 10-2474, 72 h, repeated 5 days | – | concentration | 8.9 ± 0.2 ng/g |
| Oc1ccc(/C=C/c2cc(O)cc(O)c2)cc1 | – | rat, azoxymethane-injected, blood at sacrifice | 100 mg/kg | – | total protein | 6.5 g/dL and 6.6 g/dL |
| COc1cc(Nc2ncc3c(n2)-c2ccc(Cl)cc2C(c2c(F)cccc2OC)=NC3)ccc1C(=O)O | – | patients | oral, dose not given, grade 4, any attribution, added: pembrolizumab | – | decreased neutrophil count incidence | 13% |
| CNC(=O)c1c(C)oc2cc(Oc3ncnc4cc(OC)c(OC)cc34)ccc12 | population PK model | human, female | oral | relative to: male subjects | lower apparent clearance | 17% |

| SMILES | assay | test system | conditions | how to read | endpoint | value |
| --- | --- | --- | --- | --- | --- | --- |
| CCN1/C(=C/C(C)=O)Sc2ccc(F)cc21 | – | cynomolgus monkey | oral, 100 mg/kg, 6 h post-dose | relative to: pre-dose | systolic blood pressure change | 103 ± 8.3% |
| CCc1cc(C(=O)NC)c2nccc(N3CCc4c(cc(Cn5ccnc5)cc4-c4cn(C)nc4C(F)(F)F)C3=O)c2c1 | – | Sprague Dawley rat | oral, 100 mg/kg once daily, day 4, 7-day toxicology study | relative to: day 1 | body weight change | 9.4% |
| CNC(=O)c1ccc(-c2cnc3ncc(Cc4ccc5ncccc5c4)n3n2)cc1F | phase 1 clinical trial, refers to: blood alkaline phosphatase increased | other expansion cohort | oral, 600 mg twice daily, grade 3 or 4 | – | adverse event incidence | 0% |
| COc1ccc(-n2c(SCC(N)=O)nnc2-c2cccs2)cc1 | – | octanol/buffer | pH 7.4 | – | logD | 1.76 |
| C[C@H]1CN(C(=O)CC#N)[C@]12CCN(c1ncnc3[nH]ccc13)C2 | – | healthy Japanese males, plasma | oral, 25 mg single dose | – | Cmax | 313 ng/mL |
| Fc1ccc([C@@H]2COC[C@]3(CC[C@H](c4ccccc4)CC3)N2)c(Cl)c1 | shake-flask, 1-octanol/buffer | – | pH 7.4 | – | logD | > 4.7 |
| COc1cc(-c2nnc(SCC(N)=O)n2C)cc(OC)c1OC | – | octanol/buffer | pH 7.4 | – | logD | 0.08 |
| CNCCCN1c2ccccc2CC(O)c2ccccc21 (centres unmarked) | reverse phase LC, C18 | acetonitrile gradient, 0.1% formic acid | converted from retention time | relative to: Valko CHI standards | chromatographic hydrophobicity index | 48.2 |
| Cl.[2H]C([2H])([2H])CC(=O)c1cnc(NC(=O)C2CC2)cc1Nc1cccc(-c2ncn(C([2H])([2H])[2H])n2)c1OC | geometric mean | human | oral, 40 mg twice daily, day 1, fed, liquid, multiple dose | – | elimination rate constant | 3.89e-05 s⁻¹ |
| O=C(O)CN1CCCN2CCN(CC(=O)O)CCCN(CC1)Cc1cccc(n1)C2 | – | 64Cu complex in rat plasma | 24 h, 37 °C | – | intact complex | 98% |
| CNCc1ccc(-c2[nH]c3cc(F)cc4c3c2CCNC4=O)cc1 | refers to: any adverse event | human patients | oral, 600 mg twice daily, grade 4 | – | patients with adverse event | 7.7% |
| COc1cc2c(cc1OC)CN(CCc1ccc(NC(=O)c3cccc4c(=O)c5cccc(OC)c5[nH]c34)cc1)CC2 | – | Sprague Dawley rats, plasma | iv infusion, 0.89 mg/h/kg, 4 h | – | total plasma concentration | 353 ng/mL |
| Cc1cc(NC2CCN(C(=O)OC3CCN(C(=O)/C=C/CN(C)C)C3)CC2)n2ncc(C(C)C)c2n1 (centres unmarked) | Phase I dose escalation CTCAE v4.0, refers to: back pain | patients with advanced solid tumours | dose not given, QD dosing grade 3 or higher | – | patients with adverse event | 0% |
| Cc1cc2sc(N)nc2c2cccnc12 | – | female BALB/c mice, plasma | i.p., 30 mg/kg | – | AUMC(0-t) | 219000 h²·ng/mL |
| CC(C)(C(=O)N1CCOc2c(C#N)cncc2C1)C(F)F | refers to: medical device site dermatitis | healthy humans, both sexes | oral, 40 mg single dose | – | subjects with TEAE | 0% |
| COc1cc2nccc(Oc3ccc(NC(=O)c4cc5c(n(-c6ccccc6)c4=O)CCCC5=O)nc3)c2cc1OC | – | human, relapsed/refractory AML | oral, 3 mg once daily, grade ≥3, any causality | – | patients with sinus tachycardia | 10% |
| O=C(O)CCCOc1ccc([18F])cc1-c1cc(-c2ccccc2C(F)(F)F)n(-c2ccccc2)n1 | gamma counting | male ddY mice, spleen | intravenous, 2.1 MBq, 1 min | – | radioactivity uptake | 0.22 ± 0.04 SUV |
| Cn1cncc1-c1c(F)cncc1NC(=O)c1c(N)nn2cc(F)cnc12 | two-compartment PK model | xenograft-bearing mice, plasma | – | – | central clearance | 0.12 mL/min/kg |
| O=C1NCCc2nc(OCc3cccc(F)c3)ccc21 | refers to: tail pinch | Sprague-Dawley rat male | oral, 100 mg/kg, 1 h | direction not given | Irwin test score | 0 |

| SMILES | assay | test system | conditions | how to read | endpoint | value |
| --- | --- | --- | --- | --- | --- | --- |
| CC(C)(C)OC[C@@H]1C(=O)NCCN1C(=O)C[C@H](N)Cc1cc(F)c(F)cc1F | – | human, male, plasma | oral, steady state, DP treatment | – | Vdss/F | 2010 ± 260 L |
| O=C(Nc1nc2cccc(-c3ccc(CN4CCS(=O)(=O)CC4)cc3)n2n1)C1CC1 | refers to: animal bite | human rheumatoid arthritis patients | oral, 150 mg once daily, 4 weeks, regardless of relatedness | – | treatment-emergent adverse events | 6.7% |
| CN(C)CC#Cc1ccc2[nH]c3c(c2c1)-c1nc(N)ncc1CCC3 | – | CD-1 mice, male, brain | intraperitoneal, 30 mg/kg, 1 h | – | brain concentration | 516 ng/g and 444 ng/g |
| CCN1CCN(Cc2ccc(Nc3ncc(F)c(-c4cc(F)c5nc6n(c5c4)[C@H](C)CCC6)n3)nc2)CC1 | – | human, plasma | 200 mg multiple dosing, mean | – | CL/F | 41.2 L/h |
| CCOC(=O)N1C[C@@H](c2ccc(N3CCCC3)cc2)N[C@@H](c2ccc(-c3ccccc3)cc2)C1 | shake-flask, 1-octanol/buffer | – | pH 7.4 | – | logD | > 4.7 |
| c1ccc(-c2cccc(Nc3nccc(NC4CCCCC4)n3)c2)nc1 | – | MDCKII-WT cells | 10 µM, pH 7.4 | relative to: Papp B-A over A-B | efflux ratio | 0.87 |
| CCO | – | human | – | – | flushing incidence | 61.1% |
| C=CC(=O)Nc1cc(Nc2nccc(-c3cn(C)c4ccccc34)n2)c(OC)cc1N(C)CCN(C)C | storage stability | human plasma | 10 d, -80 °C, MQC level | – | recovery | 102% |
| C[C@H]1CNCCCN1S(=O)(=O)c1cccc2cncc(F)c12 | – | healthy adult men | ocular, 1 drop per eye twice daily, 8 days, adverse event | – | subjects with pityriasis rosea | 0% |
| c1coc(Nc2ncnc3ccc(-c4cncc(N5CCOCC5)n4)cc23)n1 | – | human liver microsomes | – | – | CLint | 300 µL/min/mg |
| C[Si](C)(C)O[Si](C)(C)O[Si](C)(C)C | – | 1-octanol/water | concentration not given | – | enthalpy of phase change | 0.239 kcal/mol |
| Nc1nc2c(nc([N+](=O)[O-])n2[C@@H]2O[C@H](CO)[C@@H](O)[C@H]2O)c(=O)[nH]1 | depurination, RP-HPLC | citrate-phosphate buffer 0.5 mM | 177 min, pH 2, 37 °C | – | nucleoside remaining fraction | 0.716 |
| CN(CCC(=O)O)C(=O)c1ccc2c(c1)CC[C@@H]1[C@@H]2CC[C@]2(C)C(c3cncc(F)c3)=CC[C@@H]12 | – | premenopausal women, endometriosis pain, serum | 60 mg twice daily, visit 5, median | relative to: baseline | direct bilirubin change | 0.195 mg/dL |
| CC1(C)CN(CCCCC(=O)N[C@@H](CCC(=O)O)C(=O)N[C@@H](CCC(=O)O)C(=O)N[C@H](CCCCNC(=O)CCCCCCC(=O)NCCCC[C@H](NC(=O)N[C@@H](CCC(=O)O)C(=O)O)C(=O)O)C(=O)O)CC[N]2CC(C)(C)[S][Tc]2(=[O])[S]1 (some centres unmarked) [technetium-99m labelled] | radio-HPLC | saline | 4 h, 25 °C | – | intact radioligand | 93.2% |
| Cc1ccc([C@@H]2O[C@H](CO)[C@@H](O)[C@H](O)[C@H]2O)cc1Cc1ccc(-c2ccc(F)cc2)s1 | – | Japanese type 2 diabetes patients | 100 mg, day 3, 24 h urine collection | relative to: baseline | urinary potassium excretion change | 3.2 mEq |
| COc1ccc2[nH]c([S+]([O-])Cc3ncc(C)c(OC)c3C)nc2c1 (centres unmarked) | – | healthy Chinese volunteers, CYP2C19 poor metabolizers | oral, 20 mg, fed | – | t1/2 | 2.72 ± 0.92 h |
| CC1(C)OC[C@H](C2CCCCC2)N[C@@H]1c1ccc(Cl)c(Cl)c1 | shake-flask, 1-octanol/buffer | – | pH 7.4 | – | logD | > 4.7 |
| CC(C)(C)CC(C)(C)c1ccc(O)c(-n2nc3ccccc3n2)c1 | – | EpiSkin reconstructed epidermis | 36 h | – | mass recovery | 96.9% |

Some of these lines once more:
| SMILES | assay | test system | conditions | how to read | endpoint | value |
| --- | --- | --- | --- | --- | --- | --- |
| COc1ccc(-n2c(SCC(N)=O)nnc2-c2cccs2)cc1 | – | octanol/buffer | pH 7.4 | – | logD | 1.76 |
| C[C@H]1CN(C(=O)CC#N)[C@]12CCN(c1ncnc3[nH]ccc13)C2 | – | healthy Japanese males, plasma | oral, 25 mg single dose | – | Cmax | 313 ng/mL |
| Fc1ccc([C@@H]2COC[C@]3(CC[C@H](c4ccccc4)CC3)N2)c(Cl)c1 | shake-flask, 1-octanol/buffer | – | pH 7.4 | – | logD | > 4.7 |
| COc1cc(-c2nnc(SCC(N)=O)n2C)cc(OC)c1OC | – | octanol/buffer | pH 7.4 | – | logD | 0.08 |
| CNCCCN1c2ccccc2CC(O)c2ccccc21 (centres unmarked) | reverse phase LC, C18 | acetonitrile gradient, 0.1% formic acid | converted from retention time | relative to: Valko CHI standards | chromatographic hydrophobicity index | 48.2 |
| Cl.[2H]C([2H])([2H])CC(=O)c1cnc(NC(=O)C2CC2)cc1Nc1cccc(-c2ncn(C([2H])([2H])[2H])n2)c1OC | geometric mean | human | oral, 40 mg twice daily, day 1, fed, liquid, multiple dose | – | elimination rate constant | 3.89e-05 s⁻¹ |
| O=C(O)CN1CCCN2CCN(CC(=O)O)CCCN(CC1)Cc1cccc(n1)C2 | – | 64Cu complex in rat plasma | 24 h, 37 °C | – | intact complex | 98% |
| CNCc1ccc(-c2[nH]c3cc(F)cc4c3c2CCNC4=O)cc1 | refers to: any adverse event | human patients | oral, 600 mg twice daily, grade 4 | – | patients with adverse event | 7.7% |
